Assay results of several laboratories.
Each numbered part is a random draw from the data of one study; scales do not carry over between parts.
UniProt P19784, sequence (whole entry, looked up): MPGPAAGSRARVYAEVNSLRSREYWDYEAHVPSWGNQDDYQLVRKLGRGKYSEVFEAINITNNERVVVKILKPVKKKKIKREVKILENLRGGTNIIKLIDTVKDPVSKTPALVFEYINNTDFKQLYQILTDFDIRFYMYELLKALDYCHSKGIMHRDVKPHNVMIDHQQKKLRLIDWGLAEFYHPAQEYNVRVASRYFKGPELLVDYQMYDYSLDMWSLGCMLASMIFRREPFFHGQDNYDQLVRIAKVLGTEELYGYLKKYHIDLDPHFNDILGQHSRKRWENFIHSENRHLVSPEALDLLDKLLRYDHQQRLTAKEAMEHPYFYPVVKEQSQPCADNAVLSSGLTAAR
UniProt P50613, sequence (whole entry, looked up): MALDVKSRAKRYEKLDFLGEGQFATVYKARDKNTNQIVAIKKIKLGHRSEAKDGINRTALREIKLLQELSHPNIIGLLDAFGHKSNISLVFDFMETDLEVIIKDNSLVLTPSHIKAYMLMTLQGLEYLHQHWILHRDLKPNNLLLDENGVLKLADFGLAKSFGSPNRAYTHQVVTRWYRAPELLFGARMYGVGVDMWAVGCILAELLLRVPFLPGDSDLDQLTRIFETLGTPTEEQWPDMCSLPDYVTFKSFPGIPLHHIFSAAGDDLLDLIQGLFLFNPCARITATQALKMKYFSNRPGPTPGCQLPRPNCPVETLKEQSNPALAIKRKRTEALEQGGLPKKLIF
UniProt O76039, sequence (whole entry, looked up): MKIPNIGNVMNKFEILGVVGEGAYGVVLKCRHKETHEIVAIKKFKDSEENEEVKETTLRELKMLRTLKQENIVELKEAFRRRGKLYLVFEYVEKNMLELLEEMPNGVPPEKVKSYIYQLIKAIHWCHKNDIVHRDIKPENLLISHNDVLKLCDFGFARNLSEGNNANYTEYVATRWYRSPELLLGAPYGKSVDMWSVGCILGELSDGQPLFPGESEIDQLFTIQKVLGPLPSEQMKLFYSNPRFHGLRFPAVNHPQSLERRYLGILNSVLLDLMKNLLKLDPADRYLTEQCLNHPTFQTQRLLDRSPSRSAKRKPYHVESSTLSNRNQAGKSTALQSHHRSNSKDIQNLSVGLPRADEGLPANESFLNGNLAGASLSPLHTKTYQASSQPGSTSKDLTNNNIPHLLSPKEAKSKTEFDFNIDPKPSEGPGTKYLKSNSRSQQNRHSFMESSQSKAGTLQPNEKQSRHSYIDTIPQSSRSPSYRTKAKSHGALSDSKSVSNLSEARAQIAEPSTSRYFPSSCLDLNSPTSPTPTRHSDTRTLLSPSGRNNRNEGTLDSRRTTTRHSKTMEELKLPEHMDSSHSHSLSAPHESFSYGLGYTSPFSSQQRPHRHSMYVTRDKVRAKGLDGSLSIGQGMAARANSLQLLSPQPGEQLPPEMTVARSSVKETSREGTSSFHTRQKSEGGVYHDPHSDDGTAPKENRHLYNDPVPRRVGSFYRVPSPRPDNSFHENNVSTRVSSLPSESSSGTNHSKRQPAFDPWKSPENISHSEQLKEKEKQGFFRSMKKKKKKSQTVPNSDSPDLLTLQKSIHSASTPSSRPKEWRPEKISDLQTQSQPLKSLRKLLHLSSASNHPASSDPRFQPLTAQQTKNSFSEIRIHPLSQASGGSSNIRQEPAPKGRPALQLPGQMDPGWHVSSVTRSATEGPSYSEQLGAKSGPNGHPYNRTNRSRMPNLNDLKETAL
UniProt P29376, sequence (whole entry, looked up): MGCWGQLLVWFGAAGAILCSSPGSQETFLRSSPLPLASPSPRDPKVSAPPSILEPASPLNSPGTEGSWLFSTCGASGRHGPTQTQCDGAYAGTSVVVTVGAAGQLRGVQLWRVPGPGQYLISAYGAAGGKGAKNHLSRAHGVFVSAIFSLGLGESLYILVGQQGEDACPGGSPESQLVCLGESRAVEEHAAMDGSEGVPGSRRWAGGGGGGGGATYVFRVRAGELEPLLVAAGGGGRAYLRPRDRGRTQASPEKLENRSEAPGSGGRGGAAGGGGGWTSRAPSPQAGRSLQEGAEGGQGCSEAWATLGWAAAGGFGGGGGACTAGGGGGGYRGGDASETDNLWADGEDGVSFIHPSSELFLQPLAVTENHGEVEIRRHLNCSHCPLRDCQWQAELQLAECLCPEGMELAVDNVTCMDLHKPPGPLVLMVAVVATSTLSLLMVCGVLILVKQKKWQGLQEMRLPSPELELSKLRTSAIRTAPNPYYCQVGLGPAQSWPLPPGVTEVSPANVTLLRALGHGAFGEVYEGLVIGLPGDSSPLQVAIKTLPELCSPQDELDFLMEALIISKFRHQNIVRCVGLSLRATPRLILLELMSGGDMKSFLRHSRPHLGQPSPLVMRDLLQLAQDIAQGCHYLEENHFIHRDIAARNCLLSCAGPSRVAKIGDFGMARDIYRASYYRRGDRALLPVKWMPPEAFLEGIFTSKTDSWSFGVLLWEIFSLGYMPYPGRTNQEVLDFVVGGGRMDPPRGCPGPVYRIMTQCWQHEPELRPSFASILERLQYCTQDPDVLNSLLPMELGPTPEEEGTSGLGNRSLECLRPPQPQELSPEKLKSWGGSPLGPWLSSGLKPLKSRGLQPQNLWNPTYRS
UniProt Q9BWU1, sequence (whole entry, looked up): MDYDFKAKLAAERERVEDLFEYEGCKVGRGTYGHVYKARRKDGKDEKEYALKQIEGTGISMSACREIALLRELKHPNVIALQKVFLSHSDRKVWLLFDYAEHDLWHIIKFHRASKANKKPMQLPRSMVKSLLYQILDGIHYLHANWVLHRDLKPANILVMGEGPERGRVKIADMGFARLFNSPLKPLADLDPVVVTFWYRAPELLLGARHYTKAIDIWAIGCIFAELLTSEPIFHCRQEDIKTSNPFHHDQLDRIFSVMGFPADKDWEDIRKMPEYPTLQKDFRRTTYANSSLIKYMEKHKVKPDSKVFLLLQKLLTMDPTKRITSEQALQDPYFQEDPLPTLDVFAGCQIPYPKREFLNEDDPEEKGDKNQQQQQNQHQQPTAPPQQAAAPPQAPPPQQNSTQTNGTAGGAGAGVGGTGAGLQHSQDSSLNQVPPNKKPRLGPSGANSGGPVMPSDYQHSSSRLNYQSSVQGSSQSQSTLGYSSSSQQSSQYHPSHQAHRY
UniProt Q8TD19, sequence (whole entry, looked up): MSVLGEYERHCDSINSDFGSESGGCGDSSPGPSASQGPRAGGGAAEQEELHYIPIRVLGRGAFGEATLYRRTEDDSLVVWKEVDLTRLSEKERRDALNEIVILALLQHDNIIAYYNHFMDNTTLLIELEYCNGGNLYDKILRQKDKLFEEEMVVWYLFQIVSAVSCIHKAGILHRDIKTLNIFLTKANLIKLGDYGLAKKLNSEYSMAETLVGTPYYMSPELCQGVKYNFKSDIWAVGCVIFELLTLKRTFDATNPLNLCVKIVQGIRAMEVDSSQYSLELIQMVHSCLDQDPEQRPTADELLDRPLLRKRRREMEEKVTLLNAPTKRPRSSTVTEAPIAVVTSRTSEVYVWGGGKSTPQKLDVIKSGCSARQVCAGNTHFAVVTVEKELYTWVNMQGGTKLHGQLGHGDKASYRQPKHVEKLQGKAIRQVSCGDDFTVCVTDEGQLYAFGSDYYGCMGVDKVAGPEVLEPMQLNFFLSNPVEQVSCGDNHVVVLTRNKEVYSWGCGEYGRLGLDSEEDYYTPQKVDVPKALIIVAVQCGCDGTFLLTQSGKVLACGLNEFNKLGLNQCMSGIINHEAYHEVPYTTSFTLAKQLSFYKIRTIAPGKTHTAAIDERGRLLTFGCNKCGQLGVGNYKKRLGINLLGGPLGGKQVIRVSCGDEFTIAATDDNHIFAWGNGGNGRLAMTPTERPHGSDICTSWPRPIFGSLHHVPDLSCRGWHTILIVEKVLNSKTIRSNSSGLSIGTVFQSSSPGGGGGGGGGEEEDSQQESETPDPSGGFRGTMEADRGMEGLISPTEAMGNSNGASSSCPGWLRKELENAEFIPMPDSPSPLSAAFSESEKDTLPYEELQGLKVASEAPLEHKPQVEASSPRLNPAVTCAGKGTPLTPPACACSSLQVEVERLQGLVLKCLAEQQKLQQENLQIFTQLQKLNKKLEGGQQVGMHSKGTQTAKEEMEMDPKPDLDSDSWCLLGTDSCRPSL
UniProt P54646, sequence (whole entry, looked up): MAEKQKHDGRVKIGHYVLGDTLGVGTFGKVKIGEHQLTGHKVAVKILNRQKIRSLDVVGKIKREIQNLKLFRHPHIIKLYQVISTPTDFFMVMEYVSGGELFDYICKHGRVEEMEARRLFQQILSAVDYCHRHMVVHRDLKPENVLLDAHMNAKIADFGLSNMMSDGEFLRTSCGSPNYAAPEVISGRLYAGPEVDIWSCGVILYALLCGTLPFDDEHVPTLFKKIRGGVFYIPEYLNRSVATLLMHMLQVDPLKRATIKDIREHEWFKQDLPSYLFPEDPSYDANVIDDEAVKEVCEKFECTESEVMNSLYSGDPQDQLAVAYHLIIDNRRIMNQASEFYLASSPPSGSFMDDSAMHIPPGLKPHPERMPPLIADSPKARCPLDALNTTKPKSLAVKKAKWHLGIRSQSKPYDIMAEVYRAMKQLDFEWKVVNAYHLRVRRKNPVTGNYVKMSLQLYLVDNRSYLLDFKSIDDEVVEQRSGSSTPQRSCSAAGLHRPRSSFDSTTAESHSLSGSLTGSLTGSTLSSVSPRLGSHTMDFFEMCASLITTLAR
UniProt P49840, sequence (whole entry, looked up): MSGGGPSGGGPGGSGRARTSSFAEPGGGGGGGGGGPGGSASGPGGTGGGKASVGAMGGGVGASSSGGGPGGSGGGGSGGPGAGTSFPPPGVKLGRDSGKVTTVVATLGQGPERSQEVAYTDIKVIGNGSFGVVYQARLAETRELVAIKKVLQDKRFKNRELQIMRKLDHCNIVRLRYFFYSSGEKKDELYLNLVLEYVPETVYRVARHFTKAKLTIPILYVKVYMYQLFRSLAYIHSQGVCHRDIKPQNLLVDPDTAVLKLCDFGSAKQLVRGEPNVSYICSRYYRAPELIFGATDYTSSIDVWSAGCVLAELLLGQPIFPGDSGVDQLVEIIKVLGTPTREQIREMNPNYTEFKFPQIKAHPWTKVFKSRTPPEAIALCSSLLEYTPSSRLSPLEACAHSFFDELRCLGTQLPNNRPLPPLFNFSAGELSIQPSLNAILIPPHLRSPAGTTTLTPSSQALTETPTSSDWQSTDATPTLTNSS

Set 1 — tested at: 1 µM
Structure (SMILES): N#CC1(c2ccccn2)CCN(Cc2cc(C(=O)O)c(=O)n3ccccc23)CC1
The remaining binding was 84% (GRK1 (Homo sapiens, UniProt Q15835); cell-free assay, competition with immobilised ligand).
It gave 82% for remaining binding (CDK19 (Homo sapiens, UniProt Q9BWU1); competition binding).
For CDKL5 (Homo sapiens, UniProt O76039); cell-free assay, competition with immobilised ligand: remaining binding read 100%.
CSNK1D (Homo sapiens, UniProt P48730); cell-free assay, competition with immobilised ligand — remaining binding: 96%.
For NEK5 (Homo sapiens, UniProt Q6P3R8); cell-free assay, competition with immobilised ligand: remaining binding read 100%.
The remaining binding was 100% (ALK (Homo sapiens, UniProt Q9UM73, C1156Y); cell-free assay, competition with immobilised ligand).
PRKAA2 (Homo sapiens, UniProt P54646); cell-free assay, competition with immobilised ligand — remaining binding: 100%.
It gave 95% for remaining binding (GRK3 (Homo sapiens, UniProt P35626); cell-free assay, competition with immobilised ligand).
It gave 100% for remaining binding (GSK3A (Homo sapiens, UniProt P49840); cell-free assay, competition with immobilised ligand).

Set 2 — cell line: HEK-293T; read-out: pseudovirus infection; method: FDA-approved drug library counter-screen; organism: VSV pseudotyped with VSV-G; tested at: 10 µM; time: 16 h; reference: vehicle-treated
`COc1ccccc1OCCNCC(O)COc1cccc2[nH]c3ccccc3c12` (centres unmarked) has a GFP-positive cells of 115%.
With `CC(C)(Oc1ccc(C(=O)c2ccc(Cl)cc2)cc1)C(=O)O` the GFP-positive cells was 87.8%.
For `CCCN1CCCC[C@H]1C(=O)Nc1c(C)cccc1C`, the GFP-positive cells was 108%.
With `CN1CCC(=C2c3ccccc3CCn3c(C=O)cnc32)CC1` the GFP-positive cells was 107%.
The GFP-positive cells of `CCCCc1nc(Cl)c(CO)n1Cc1ccc(-c2ccccc2-c2nn[nH]n2)cc1` is reported as 91.8%.
The GFP-positive cells of `Cc1cccn2c(=O)c(-c3nnn[nH]3)cnc12` is reported as 109%.

Set 3 — read-out: enzyme activity; mode: inhibitor; tested at: 0.5 µM; reference: control
SMILES: COC[C@H]1OC(=O)c2coc3c2[C@@]1(C)C1=C(C3=O)[C@@H]2CCC(=O)[C@@]2(C)C[C@H]1OC(C)=O
For BRSK1 (Homo sapiens, UniProt Q8TDC3): remaining activity read 91.2%.
CDK7 (Homo sapiens, UniProt P50613) — remaining activity: 93.3%.
The remaining activity was 92.3% (NEK9 (Homo sapiens, UniProt Q8TD19)).
For ROS1 (Homo sapiens, UniProt P08922): remaining activity read 100%.
For CSNK2A2 (Homo sapiens, UniProt P19784): remaining activity read 98.3%.
The remaining activity was 98.5% (PKN2 (Homo sapiens, UniProt Q16513)).
The remaining activity was 97% (EGFR (Homo sapiens, UniProt P00533)).

Mixed results
`CC#CC(=O)N1CCC[C@H]1c1nc(-c2ccc(C(=O)Nc3ccccn3)cc2)c2c(N)nccn12` has an inhibition of 4% (Leukocyte tyrosine kinase receptor (LTK, Homo sapiens, UniProt P29376); enzyme activity, inhibitor; 1 µM).
